Published values pooled from the literature.

`C[C@@H](Nc1cc(F)cc(F)c1)c1cc(C(=O)N(C)C)cc2c(=O)cc(N3CCOCC3)oc12` — result for “patients discontinuing for AE”: 1.6% (item: Vomiting; advanced solid tumour patients; oral, dose not given, dose finding).
For `COc1cc(Nc2ncc3c(n2)-c2ccc(Cl)cc2C(c2c(F)cccc2OC)=NC3)ccc1C(=O)O`, “patients with adverse event” read 79% (item: Anemia, all grades; cancer patients, phase 1/2; oral, dose not given, added: pembrolizumab).
For `FC(F)(F)c1ccc(CNc2ccc(Cc3c[nH]c4ncc(Cl)cc34)cn2)cn1`, “patients with treatment-related adverse event” read 0% (item: weight increased; adult patients with TGCT; oral, 1000 mg/day, grade 3 or higher).
`O=C(Nc1nc2cccc(-c3ccc(CN4CCS(=O)(=O)CC4)cc3)n2n1)C1CC1`: “patients with injection site hematoma” 0% (rheumatoid arthritis patients; oral, 100 mg twice daily, 4 weeks, regardless of relatedness).
For `CNC(=O)c1ccc(-c2cnc3ncc(Cc4ccc5ncccc5c4)n3n2)cc1F`, “patients with adverse event” read 11% (item: Cough, all grades; cancer patients; oral, 600 mg twice daily, other expansion cohort, any causality).
Under “patients with adverse event”, `Cc1cc(NC2CCN(C(=O)OC3CCN(C(=O)/C=C/CN(C)C)C3)CC2)n2ncc(C(C)C)c2n1` (stereo not shown) is recorded as 0% (Phase I dose escalation CTCAE v4.0, item: abdominal distension; patients with advanced solid tumours; dose not given, Total dosing grade 3 or higher).
Under “patients with grade 3 musculoskeletal disorders”, `CNC(=O)c1cc(Oc2ccc(NC(=O)Nc3cc(C(C)(C)C)nn3-c3ccc4ncccc4c3)c(F)c2)ccn1` is recorded as 29% (patients; oral, dose not given, cycles 1 and 2, Medium AUC subgroup).
Under “patients with immune-mediated AE”, `Cc1cc(-c2nnc(N)nc2-c2ccc(F)cc2)cc(Cl)n1` is recorded as 0% (item: rash; post-IO NSCLC patients; oral, 100 mg once daily, treatment-related, grade 2).
`CCOc1c([C@H](C)n2nc(C)c3c(N)ncnc32)cc(Cl)c(F)c1[C@@H]1CNC(=O)C1` — result for “patients with HR above 100 bpm”: 0% (ECG; previously treated B-cell malignancy patients; oral, 20 mg once daily, baseline below thresholds).
`C=CC(=O)Nc1cc(Nc2nccc(-c3cn(C)c4ccccc34)n2)c(OC)cc1N(C)CCN(C)C`: “patients with adverse events” 2% (item: treatment-related grade ≥3 Myalgia; EGFR-mutant MET-altered NSCLC; oral, dose not given, all).

Some of these lines once more:
For `CNC(=O)c1ccc(-c2cnc3ncc(Cc4ccc5ncccc5c4)n3n2)cc1F`, “patients with adverse event” read 11% (item: Cough, all grades; cancer patients; oral, 600 mg twice daily, other expansion cohort, any causality).
